Assay results of several laboratories.
Parts stem from different laboratories: compare values within a part only.

Series 1
Target: RNA binding protein fox-1 homolog 2, RRM domain, GST-SBP tag (RBFOX2, Homo sapiens, UniProt O43251-10, residues 100-194)
Method: RNA Bind-n-Seq
Molecule type: RNA
Sample: in vitro
Concentration: 365 nM
Setting: natural RNA segment, single round, ends assumed
Relative to: no-protein control
Direction: higher = stronger binding
Constant ends, left off below: GGGAGUUCUACAGUCCGACGAUC … UGGAAUUCUCGGGUGCCAA
Residues (chain): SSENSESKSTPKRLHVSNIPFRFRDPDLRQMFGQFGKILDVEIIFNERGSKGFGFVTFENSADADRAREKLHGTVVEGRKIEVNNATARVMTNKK
Sequence | RBNS enrichment (R)
UGCCGGAUUCUAGGUUAGCAAAGACUCAAAUGGGUGACUCAUGAAUGAAGGGAGAACAGGCACAGGACUUAAUGAAAAGAGUUUCUUGAACUUAGUUUUCUGAAUGGGGG | 1.06
CUAAGAAUGAAAACAGGUCAUAUGUAAUAUUUUGUUUGUAAGUAUCCUUUGUAUCAUAGCAAAGGAAAUGUUUAAAAGAUCAACUGUAAUAAAAGUAAUUUUAGUACACA | 0.431
AUCUGCAGAGAGCUUGGCAGCUCCAGCUCUCCUCAGCAGGCCUCUCCACCCUGAUCUGGCCCCUGUUAGCCCAUGAGCCCUCUUUAUGUACCCAUCCUCCCUUUCUGAAC | 0.371
UGCAGCCCGGCUGUGGGAAUGAAUCAUUGGAGUAAUAAACUACAGUGGUUGAUCCACAUGUGCUCGCAACUCUGUUUUGUACAGCGCACGCUUUCCUGGUUUUCAGGGUA | 0.385
CUAUGGUUCUCAUUUUCACCCUCAGCUUGGCAGUUCAUUUUCUUUUCACGAGUUUGCCUAGUGCUCUGGUUUACACUAUAUGACAACUAUACUUCAGCUGUUCUUUGCCU | 0.298
AUACCCUGUCCAUUGGUAGAUGUCUUGCUUCUUCUGGUUCAGGCAGGGAAAACACUUGGACUCUUCUUGCAGCACUAAAACUAACCUGGAAUCGCAUGUAGUAGAGCUGA | 13.3
GGAGGAGCCGGAUUGGGUUAUUUCUUAGGGAUUCUCUUUGUGUGCCUUGCUGGCUUCCAGACCUGCCGUGGACCUUGGCUUCCUCUGAAGACUUGCAGGCAAUAAUCUCC | 0.582
UGCACAGAUGUUGAAUGAACAUCUGUUUGGGGCAUUGGAGGGAAAAGGAAAGGACCCUGAAGCCAAUAUCUGAUUCUCGGCUGCACCUUCUCUUGGCCACCCUGGCCCUG | 0.243

Series 2
Target: Interferon regulatory factor 7, full length, phosphomimetic (IRF7, Homo sapiens, UniProt Q92985, residues 1-503, S101K/S471D/S472D/S475D/S476D/S477D/S483D/S484D/S487D)
Method: protein-binding microarray
Molecule type: double-stranded DNA, one strand shown
Sample: in vitro
Concentration: 250 nM
Setting: 60-bp whole probe
Added: salmon DNA 0.4 mg/ml
Relative to: random background probes
Direction: higher = stronger binding
Constant ends, left off below: GCCTAGCAC … GTCTTGATTCGCTTGACGCTGCTG
Construct (chain): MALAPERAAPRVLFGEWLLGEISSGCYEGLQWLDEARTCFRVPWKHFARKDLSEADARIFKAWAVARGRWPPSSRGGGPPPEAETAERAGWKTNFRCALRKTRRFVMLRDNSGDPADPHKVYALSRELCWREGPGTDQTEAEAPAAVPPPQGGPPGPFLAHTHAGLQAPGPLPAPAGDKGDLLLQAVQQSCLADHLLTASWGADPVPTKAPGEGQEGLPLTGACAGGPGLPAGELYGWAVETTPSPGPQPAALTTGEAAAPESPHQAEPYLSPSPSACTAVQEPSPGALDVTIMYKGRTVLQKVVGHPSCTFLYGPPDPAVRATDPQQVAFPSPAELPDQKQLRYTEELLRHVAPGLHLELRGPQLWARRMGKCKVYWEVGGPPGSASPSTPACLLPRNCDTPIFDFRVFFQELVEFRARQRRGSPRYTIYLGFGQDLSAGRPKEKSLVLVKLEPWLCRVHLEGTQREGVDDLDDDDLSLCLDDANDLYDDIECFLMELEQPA
Sequence | log fluorescence [z-score]
CACGGTTTCCTTATCCTGACGTGCTAG | 3.04
GACGGTATCGTACTGGGGACGTGCTAG | -0.309
GTCTTTGCAAAAGCTCCACCGTGCTAG | 1.19
TGGGCACACTTTGGGTCCTGGTGCTAG | 1.23
TTAGGACTGTTTCTCCTTTAGTGCTAG | 2.52
TCAAAAATGGCTTTGCAACTGTGCTAG | -0.636
TTGTTTCTAATATTCTGCTTGTGCTAG | 1.96
GACGGTTTCGGGTAGCGGGACGTGCTA | 7.94
GACGGTCTCCTTATCCAGACGTGCTAG | 0.181
ACTAATTTTCAATTCCTGAAGTGCTAG | 0.434
TCATGTTTGTCACTCTCAGAGTGCTAG | 0.73
GACGGTATTGGTTTCGGGACGTGCTAG | 3.98
TCAACTTTCTGAATGCCACTGTGCTAG | 0.419
GACGGACTGCTGATCCTGACGTGCTAG | -0.875
TCAGTTCCCTATATAAGACTGTGCTAG | 2.14
TGTGCATGTGTGTTTTCTGCGTGCTAG | -0.609
TTAGGTATCCTACGGCTTTAGTGCTAG | -0.547
GACAGTTTCGACTTTCGGGACGTGCTA | 10.2
GGCGGTATCCTTTTCCTGACGTGCTAG | 0.38

Series 3
Target: Ras GTPase-activating protein-binding protein 1, RRM domain (G3BP1, Homo sapiens, UniProt Q13283)
Chain of UniProt Q13283 (whole entry, looked up): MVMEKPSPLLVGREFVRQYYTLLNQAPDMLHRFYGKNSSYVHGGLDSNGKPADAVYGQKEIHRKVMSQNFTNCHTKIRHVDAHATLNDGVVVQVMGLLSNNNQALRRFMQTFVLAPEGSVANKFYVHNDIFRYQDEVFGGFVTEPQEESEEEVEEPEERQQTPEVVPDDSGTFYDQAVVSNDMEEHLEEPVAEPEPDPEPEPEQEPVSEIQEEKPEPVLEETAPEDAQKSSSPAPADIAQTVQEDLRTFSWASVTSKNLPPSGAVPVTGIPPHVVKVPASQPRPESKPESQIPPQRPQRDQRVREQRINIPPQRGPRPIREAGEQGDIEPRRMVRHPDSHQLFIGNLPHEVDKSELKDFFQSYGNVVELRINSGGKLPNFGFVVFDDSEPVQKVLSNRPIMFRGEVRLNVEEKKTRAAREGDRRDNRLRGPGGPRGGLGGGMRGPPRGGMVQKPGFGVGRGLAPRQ
Method: RNA Bind-n-Seq
Molecule type: RNA
Sample: in vitro
Concentration: 1 µM
Setting: whole 134-nt RNA, ends assumed
Added: 150 mM KCl
Relative to: input library
Direction: higher = stronger binding
Constant ends, left off below: GGGAGUUCUACAGUCCGACGAUC … UGGAAUUCUCGGGUGUCAAGG
Sequence | log2 enrichment
UCAAGUCCUGUGCUACACAUCGUAUGUACCGAAUCGGGGUUGGGGUUGGGUUGGGAAAGUAUUAUGUUACGCCGUUCGGAUCUGCACUUC | 0.643
AGUCCUGUGCUACACAUCGUAUGUACCGAAUCGGGGAGGGGAGGGGUUUUUUUGGGGAAAGUAUUAUGUUACGCCGUUCGGAUCUGCACU | 1.01
AGUCCUGUGCUACACAUCGUAUGUACCGAAUCGGGUUUUUGGGAGGGAAAAAAAGGGAAAGUAUUAUGUUACGCCGUUCGGAUCUGCACU | 0.215
UUCCUCAAGUCCUGUGCUACACAUCGUAUGUACCGAAUCGGUGGUGGAGGAAAGUAUUAUGUUACGCCGUUCGGAUCUGCACUUCCAGCA | -0.315
AAGUCCUGUGCUACACAUCGUAUGUACCGAAUCGGUUUUUGGUUUUUGGGUUUUUGGAAAGUAUUAUGUUACGCCGUUCGGAUCUGCACU | -0.0435
CUCAAGUCCUGUGCUACACAUCGUAUGUACCGAAUCGGUUUGGUUUGGUUUGGAAAGUAUUAUGUUACGCCGUUCGGAUCUGCACUUCCA | -0.277
AGUCCUGUGCUACACAUCGUAUGUACCGAAUCGGAAAAAAGGAAAAAAGGAAAAAAGGAAAGUAUUAUGUUACGCCGUUCGGAUCUGCAC | 0.0104
UCAAGUCCUGUGCUACACAUCGUAUGUACCGAAUCGGUUUUUUUGGAGGUUUGGAAAGUAUUAUGUUACGCCGUUCGGAUCUGCACUUCC | -0.242
ACCAUGCAGGUGGGCAUCUUUGGGAAGUGGGGCAAGGGGGGGAUAGGGAGGGGGGUAACACUUUGGGAACGGGUGGUCCCAGGUCGUUUC | 0.775

Series 4
Target: Histone acetyltransferase KAT6A, winged helix 2, GST fusion (KAT6A, Homo sapiens, UniProt Q92794, residues 85-181)
Method: protein binding microarray
Molecule type: double-stranded DNA, one strand shown
Sample: in vitro
Concentration: not given
Setting: 8-mer, flanks averaged, mean of 2 arrays, mostly near background
Relative to: not given
Direction: higher = stronger binding
Target sequence (chain): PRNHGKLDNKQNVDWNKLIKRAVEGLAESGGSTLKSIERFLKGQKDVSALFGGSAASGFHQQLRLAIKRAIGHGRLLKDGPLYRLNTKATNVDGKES
Sequence | E-score
GAGTAGGC | -0.0353
ATCTTTTA | 0.0206
GGAACATA | -0.0203
ACGTGATC | -0.198
CATCCGCC | 0.221
ACTTCTGG | -0.175
CAAGCCGG | 0.197
AGCTTCAA | -0.0378
GGAGATCA | -0.112
TCAGCTGA | 0.00638
GACGGCTC | -0.134
ATACTATA | -0.0752
GTAATAAA | -0.0571
ACCCTACC | -0.199
ATCTATAA | -0.0497
AGTAGTGA | -0.094
CGTGCGCC | -0.0088
ATCAGTTA | -0.0217
AGCTGAAA | 0.037
CAATTAAC | -0.069
GTTAAGCA | -0.0496
GCCCCAGC | 0.232
CCCCGCTA | 0.116
CCTAAGAC | -0.305
GCGCTTAC | -0.0468

For quick reference, copied from above (series 4):
Sequence | E-score
GAGTAGGC | -0.0353
ATCTTTTA | 0.0206
GGAACATA | -0.0203
ACGTGATC | -0.198
CATCCGCC | 0.221
ACTTCTGG | -0.175
CAAGCCGG | 0.197
AGCTTCAA | -0.0378
GGAGATCA | -0.112
TCAGCTGA | 0.00638
